# Measurements from different studies.
# Each line is one published result; not all experiments were run side by side.
host,matrix,route,dose,notes,Tmax [min],SMILES
male BALB/c mouse,plasma,oral,50 mg/kg,,120,CN1CC[C@H](c2c(O)cc(O)c3c(=O)cc(/C=C/c4c(Cl)cccc4Cl)oc23)[C@H](O)C1
female C57BL/6 mouse,brain,oral,25 mg/kg,,60,Cc1cccc(O[C@H]2CCC[C@@H](C(C)CNCc3ccncc3)C2)c1 (relative stereo)
female BALB/c mouse,plasma,oral,30 mg/kg,,30,O.O=C(O)/C=C\C(=O)O.O=c1[nH]cnc2n[nH]cc12
mouse,plasma,intraperitoneal,3 mg/kg,,21,Cc1ccc2oc(-c3c4c(N)n[nH]c(=O)c4nn3-c3ccc(NC(=O)/C=C/CN(C)C)cc3)c(C)c2c1
male Kunming mouse,plasma,intraperitoneal,15 mg/kg,,15.3,Cc1cc(O)cc(O)c1C(=O)c1c2c3c(c(O)cc(C)c3oc1=O)C(=O)c1c(O)cc(O)cc1-2
mouse,plasma,oral,5 mg/kg,,30,NS(=O)(=O)NCC(F)(F)c1ccccc1F
mouse,plasma,oral,3 mg/kg,,24,NC(=O)c1c(F)ccc(OCc2nc3cc(Cl)cnc3s2)c1F
C57BL/6 mouse,brain,oral,50 mg/kg,single dose,50,CN1CCc2cc(Nc3ncc(C(F)(F)F)c(NCc4cc[nH]n4)n3)ccc2C1
female CD-1 mouse,plasma,oral,50 mg/kg,,34.8,O=C1C2=C(CCN(Cc3ccccc3)C2)N2CCN=C2N1Cc1ccc(C(F)(F)F)cc1
male C57BL/6 mouse,plasma,oral,10 mg/kg,single dose,60,CC(C)(O)c1ccc(N2Cc3c(ccnc3-c3ccc(F)cc3OCC(F)(F)F)C2=O)cc1
mouse,plasma,oral,10 mg/kg,,160,CN1CCC(N[C@@H]2CCc3[nH]c4c(C(N)=O)ccc(-c5ccccc5Cl)c4c3C2)CC1
female C57BL/6 mouse,plasma,oral,400 mg/kg,single dose,30,CCC(=C(c1ccc(Cl)cc1)c1ccc(OCCN2CCOCC2)cc1)c1ccc(OC)cc1
male C57BL/6 mouse,plasma,intraperitoneal,10 mg/kg,,15,Brc1ccccc1-c1nnc(CSc2nnnn2-c2ccccc2)o1
female BALB/c mouse,plasma,oral,75 mg/kg,single dose,60,Fc1ccc2[nH]ccc2c1-c1nc(N2CCOCC2)c2sc(CN3CCN(CC4CC4)CC3)cc2n1
male C57BL/6 mouse,plasma,oral,30 mg/kg,,120,CCOc1c(C(C)(C)O)sc2cnc(Nc3ccc(N4CCC(N5CC6(COC6)C5)CC4)cc3OC)nc12
mouse,plasma,intraperitoneal,5 mg/kg,single dose,120,C[N+]1(CC(=O)OC2CCCCCCCCCCC2)CCCCC1
mouse,plasma,oral,3 mg/kg,,30,CCS(=O)(=O)c1ccccc1C(=O)N1CCN(c2nc3ccc(F)cc3s2)C[C@@H]1C
female C57BL/6 mouse,plasma,intraperitoneal,50 mg/kg,,18,O=C1OC2(c3ccccc31)c1cc(I)c(O)c(I)c1Oc1c2cc(I)c(O)c1I
female CD-1 mouse,plasma,intravenous,5 mg/kg,,0,N#Cc1cnc2cc(OCC3CCNCC3)c(F)cc2c1Nc1cc(F)c(OCc2cccc(Cl)n2)cc1Cl
C57BL/6 mouse,plasma,intraperitoneal,10 mg/kg,single dose,5,Cc1cc(NCCOC(C)C)c2nc(N3CCOC[C@H]3C)cc(=O)n2c1
